# Results pooled from the literature.
# Values joined by “and” are separate records of one study, mostly repeats; a detail may differ. ± gives the spread as reported.
# Sequence of UniProt Q14004 (whole entry, looked up): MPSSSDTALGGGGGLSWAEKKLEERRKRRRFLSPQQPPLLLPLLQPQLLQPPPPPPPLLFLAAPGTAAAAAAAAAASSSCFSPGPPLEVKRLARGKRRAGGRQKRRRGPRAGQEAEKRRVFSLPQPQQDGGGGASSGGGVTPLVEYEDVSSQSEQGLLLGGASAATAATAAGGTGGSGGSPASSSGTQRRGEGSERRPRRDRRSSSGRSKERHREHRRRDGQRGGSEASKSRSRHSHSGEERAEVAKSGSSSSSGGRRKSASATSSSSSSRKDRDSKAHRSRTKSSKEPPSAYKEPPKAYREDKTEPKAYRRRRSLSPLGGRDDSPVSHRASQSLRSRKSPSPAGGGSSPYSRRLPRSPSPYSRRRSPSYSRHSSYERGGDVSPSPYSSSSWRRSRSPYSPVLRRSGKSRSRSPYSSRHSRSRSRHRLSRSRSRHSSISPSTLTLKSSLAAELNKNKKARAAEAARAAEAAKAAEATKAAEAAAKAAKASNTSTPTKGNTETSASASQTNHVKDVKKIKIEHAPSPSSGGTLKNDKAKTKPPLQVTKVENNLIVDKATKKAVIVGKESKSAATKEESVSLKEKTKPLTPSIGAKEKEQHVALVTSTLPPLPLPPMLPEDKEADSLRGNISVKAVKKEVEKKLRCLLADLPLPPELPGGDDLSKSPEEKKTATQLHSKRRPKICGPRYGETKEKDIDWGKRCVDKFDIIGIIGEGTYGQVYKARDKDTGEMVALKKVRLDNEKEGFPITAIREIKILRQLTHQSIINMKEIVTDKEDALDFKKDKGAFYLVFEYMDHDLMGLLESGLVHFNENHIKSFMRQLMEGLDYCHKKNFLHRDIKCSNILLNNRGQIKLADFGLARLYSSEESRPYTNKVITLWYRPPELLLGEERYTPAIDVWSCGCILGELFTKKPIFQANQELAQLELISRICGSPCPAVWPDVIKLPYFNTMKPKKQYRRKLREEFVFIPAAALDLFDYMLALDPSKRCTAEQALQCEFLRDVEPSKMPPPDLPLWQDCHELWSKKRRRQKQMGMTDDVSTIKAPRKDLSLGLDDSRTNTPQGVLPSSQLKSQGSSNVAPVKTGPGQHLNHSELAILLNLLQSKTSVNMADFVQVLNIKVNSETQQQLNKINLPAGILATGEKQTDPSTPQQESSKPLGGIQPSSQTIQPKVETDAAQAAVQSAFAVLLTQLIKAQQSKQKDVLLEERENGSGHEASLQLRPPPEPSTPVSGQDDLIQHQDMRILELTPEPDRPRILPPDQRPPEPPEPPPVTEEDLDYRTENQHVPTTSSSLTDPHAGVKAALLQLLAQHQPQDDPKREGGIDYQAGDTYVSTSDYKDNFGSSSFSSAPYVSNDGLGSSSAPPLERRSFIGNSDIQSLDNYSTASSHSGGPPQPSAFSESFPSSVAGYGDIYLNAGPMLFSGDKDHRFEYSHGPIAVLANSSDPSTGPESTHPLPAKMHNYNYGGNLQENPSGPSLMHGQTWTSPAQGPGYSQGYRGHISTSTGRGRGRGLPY
# Sequence of UniProt P80192 (whole entry, looked up): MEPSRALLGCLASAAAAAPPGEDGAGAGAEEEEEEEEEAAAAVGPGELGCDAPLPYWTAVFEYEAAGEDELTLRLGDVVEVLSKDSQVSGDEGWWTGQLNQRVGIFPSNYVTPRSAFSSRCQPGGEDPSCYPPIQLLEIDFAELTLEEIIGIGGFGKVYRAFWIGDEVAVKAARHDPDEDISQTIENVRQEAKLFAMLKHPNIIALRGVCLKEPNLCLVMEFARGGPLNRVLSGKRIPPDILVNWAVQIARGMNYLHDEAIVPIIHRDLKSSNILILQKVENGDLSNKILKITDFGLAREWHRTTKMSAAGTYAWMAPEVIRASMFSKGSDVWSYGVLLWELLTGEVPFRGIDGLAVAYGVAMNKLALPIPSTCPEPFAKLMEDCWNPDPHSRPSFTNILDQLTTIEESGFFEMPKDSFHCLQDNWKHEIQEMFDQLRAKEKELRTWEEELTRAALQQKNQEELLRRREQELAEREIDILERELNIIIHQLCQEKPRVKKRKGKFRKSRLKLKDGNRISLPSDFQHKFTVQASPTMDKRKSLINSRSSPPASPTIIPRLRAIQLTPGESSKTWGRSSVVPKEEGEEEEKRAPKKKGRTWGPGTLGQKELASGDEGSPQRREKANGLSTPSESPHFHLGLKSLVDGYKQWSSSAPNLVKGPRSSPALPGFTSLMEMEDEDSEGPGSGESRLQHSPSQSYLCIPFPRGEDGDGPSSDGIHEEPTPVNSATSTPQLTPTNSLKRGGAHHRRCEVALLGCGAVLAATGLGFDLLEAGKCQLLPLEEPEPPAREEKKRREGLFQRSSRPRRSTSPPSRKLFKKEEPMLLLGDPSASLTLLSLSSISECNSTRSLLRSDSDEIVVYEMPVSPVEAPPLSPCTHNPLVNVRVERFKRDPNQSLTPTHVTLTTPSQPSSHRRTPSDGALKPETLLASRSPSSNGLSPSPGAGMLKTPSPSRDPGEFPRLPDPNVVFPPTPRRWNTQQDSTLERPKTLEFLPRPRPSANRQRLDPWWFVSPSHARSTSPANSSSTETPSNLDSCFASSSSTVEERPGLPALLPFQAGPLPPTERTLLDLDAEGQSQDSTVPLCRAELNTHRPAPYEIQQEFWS
# Sequence of UniProt P51813 (whole entry, looked up): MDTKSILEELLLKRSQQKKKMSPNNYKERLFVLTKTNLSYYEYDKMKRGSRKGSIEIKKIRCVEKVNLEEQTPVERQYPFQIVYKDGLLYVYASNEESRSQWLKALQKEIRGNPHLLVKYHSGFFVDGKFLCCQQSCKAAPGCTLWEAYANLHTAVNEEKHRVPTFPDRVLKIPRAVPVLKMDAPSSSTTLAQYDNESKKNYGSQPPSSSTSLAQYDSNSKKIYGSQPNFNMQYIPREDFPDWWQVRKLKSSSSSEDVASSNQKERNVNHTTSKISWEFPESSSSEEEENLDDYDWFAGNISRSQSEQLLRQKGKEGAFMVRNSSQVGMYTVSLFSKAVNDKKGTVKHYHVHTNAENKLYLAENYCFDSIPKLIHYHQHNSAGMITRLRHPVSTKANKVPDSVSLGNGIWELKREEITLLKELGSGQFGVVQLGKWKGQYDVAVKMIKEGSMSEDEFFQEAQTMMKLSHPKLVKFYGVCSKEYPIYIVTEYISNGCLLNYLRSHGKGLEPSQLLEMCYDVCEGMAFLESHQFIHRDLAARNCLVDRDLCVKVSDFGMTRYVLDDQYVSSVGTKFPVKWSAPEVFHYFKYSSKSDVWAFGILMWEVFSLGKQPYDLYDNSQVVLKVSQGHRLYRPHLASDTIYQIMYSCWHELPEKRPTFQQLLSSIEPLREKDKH
SMILES,target or system,assay,system,conditions,scale,quantity,value
O=C1NC(=O)c2c1c1cc(F)c[n+]3c1c1c2c2cc(O)ccc2[n]1[Ru-4]312([N]=C=S)[S+]3CC[S+]1CC[S+]2CC3 (stereo not drawn),"BMX (Homo sapiens, UniProt P51813)",enzyme activity,,"100 nM, human enzyme, with: 10 µM ATP",baseline: untreated,remaining activity,107%
CC[C@H](C)[C@H](NC(=O)[C@H](C)NC(=O)[C@H](CCCCN)NC(=O)[C@H](CC(C)C)NC(=O)[C@@H](N)Cc1ccccc1)C(=O)N[C@@H](CCCCN)C(=O)N[C@@H](CCCCN)C(=O)N[C@@H](Cc1ccccc1)C(=O)NCC(=O)N[C@@H](CCCCN)C(=O)N[C@@H](CCC(=O)O)C(=O)N[C@@H](Cc1ccccc1)C(=O)N[C@@H](CCCCN)C(=O)N[C@@H](CCCCN)C(=O)N[C@H](C(=O)NCC(=O)N[C@@H](C)C(=O)N[C@@H](CCCCN)C(=O)N[C@@H](CC(C)C)C(=O)N[C@@H](CCCCN)C(=O)O)[C@@H](C)CC,,,human red blood cells,"8 mg/L, 1 h",,hemolysis,-0.102% and 0.449% and 0.388%
CCCCCCCCCCCCCC(=O)N[C@H](CCN)C(=O)N[C@@H]1C(=O)N[C@@H](CCN)C(=O)N[C@@H](CC(C)C)C(=O)N[C@@H](CCN)C(=O)N[C@H](Cc2ccccc2)C(=O)N[C@@H](CC(C)C)C(=O)N[C@@H](CCN)C(=O)N[C@H](CCN)C(=O)N[C@@H](C(C)C)C(=O)N[C@@H](CC(=O)O)C(=O)O[C@@H]1C,,,"rat, plasma","subcutaneous, 10 mg/kg",,AUC(0-t),114 µg·h/mL
CCCCCCCCCCCCCCCC(=O)N[C@@H](CCC(=O)NCCOCCOCCC(=O)NCCOCCOCCC(=O)NCCCC[C@H](NC(=O)[C@H](CC(=O)O)NC(=O)[C@H](CC(C)C)NC(=O)[C@H](Cc1ccc(O)cc1)NC(=O)[C@H](CCCCN)NC(=O)[C@H](CO)NC(=O)[C@H](Cc1ccc(O)cc1)NC(=O)[C@H](CC(=O)O)NC(=O)[C@H](CO)NC(=O)[C@@H](NC(=O)[C@H](Cc1ccccc1)NC(=O)[C@@H](NC(=O)CNC(=O)[C@H](CCC(N)=O)NC(=O)[C@@H](CO)NC(=O)[C@@H](N)Cc1c[nH]cn1)[C@@H](C)O)[C@@H](C)O)C(=O)N[C@@H](CCCNC(=N)N)C(=O)N[C@@H](CCCNC(=N)N)C(=O)N[C@@H](C)C(=O)N[C@@H](CCC(N)=O)C(=O)N[C@@H](CC(=O)O)C(=O)N[C@@H](Cc1ccccc1)C(=O)N[C@H](C(=O)N[C@@H](CCC(N)=O)C(=O)N[C@@H](Cc1c[nH]c2ccccc12)C(=O)N[C@@H](CC(C)C)C(=O)N[C@@H](CC(C)C)C(=O)N[C@@H](CC(N)=O)C(=O)N[C@H](C(=O)NCC(=O)NCC(=O)N1CCC[C@H]1C(=O)N[C@@H](CO)C(=O)N[C@@H](CO)C(=O)NCC(=O)N[C@@H](C)C(=O)N1CCC[C@H]1C(=O)N1CCC[C@H]1C(=O)N1CCC[C@H]1C(=O)N[C@@H](CO)C(N)=O)[C@@H](C)O)C(C)C)C(=O)O,,refers to: ALT,"Sprague-Dawley rat, male","subcutaneous, 20 µg/kg once daily, 14 days",,serum enzyme activity,34.6 ± 6.1 U/L
Cc1nc2cccc(OCC(C)(C)C(=O)NC(C)C)c2c(N)c1C(=O)[O-].[Na+],Salmonella typhimurium,Ames plate incorporation,TA98,"0.32 mg/plate, with: with rat liver S9",,revertant colonies,39 ± 6 colonies/plate
CSCC[C@H](NC(=O)CNC(=O)[C@H](CCCCN)NC(=O)[C@H](CC(C)C)NC(=O)[C@@H]1CCCN1C(=O)[C@H](CO)NC(=O)[C@H](Cc1c[nH]cn1)NC(=O)[C@H](Cc1c[nH]c2ccccc12)NC(=O)[C@H](CCCNC(=N)N)NC(=O)[C@H](CC(C)C)NC(=O)[C@H](CCCNC(=N)N)NC(=O)[C@H](Cc1c[nH]c2ccccc12)NC(=O)[C@H](CS)NC(=O)CCCCCNC(=O)CN1CCN(CC(=O)O)CCN(CC(=O)O)CCN(CC(=O)O)CC1)C(=O)O [copper-64 labelled],,ex vivo biodistribution,"BALB/c nude mice, stomach","intravenous, dose not given, 6 h, Huh-7 tumour-bearing",,tissue uptake,3.27 %ID/g
N#[11C]c1ccc(-c2csc(NN=C3CCCC3)n2)cc1,,dynamic PET/CT,"C57BL/6 mouse, lung","intravenous, dose not given, end of PET scan",,radioactivity uptake,0.5 SUV
COc1ccccc1-c1n[nH]c2nc(N[C@H]3CC[C@H](NS(=O)(=O)CC(C)C)CC3)ncc12,,"bead binding, competition bead pull-down, refers to: LINJ.29.2310",Leishmania donovani extract,10 µM,baseline: vehicle,relative abundance,0.85
CN(C)[C@H]1C[C@@]23CC[C@@]4(O2)C(=CC[C@]2(C)[C@@H](c5ccc6ccncc6c5)CC[C@H]24)C=C3[C@@H](O)[C@@H]1O,"CDK13 (Homo sapiens, UniProt Q14004)","ATP probe labelling, inhibitor, KiNativ profiling",,0.1 µM,,inhibition,7%
CC(C)C[C@H](NC(=O)[C@H](Cc1ccc(O)cc1)NC(=O)[C@H](C)NC(=O)[C@@H](NC(=O)[C@H](CC(C)C)NC(=O)[C@H](C)NC(=O)[C@H](C)NC(=O)[C@H](CCCCN)NC(=O)CNC(=O)[C@@H](NC(=O)[C@H](Cc1c[nH]cn1)NC(=O)[C@H](CCCCN)NC(=O)CNC(=O)[C@@H](NC(=O)[C@H](Cc1c[nH]cn1)NC(=O)[C@@H](NC(=O)[C@H](C)NC(=O)[C@H](CCCCN)NC(=O)[C@H](CCCCN)NC(=O)[C@H](Cc1ccccc1)NC(=O)[C@H](Cc1c[nH]c2ccccc12)NC(=O)[C@H](CCCCN)NC(=O)CNC(=O)[C@H](Cc1c[nH]c2ccccc12)NC(=O)[C@@H](N)CCCNC(=N)N)[C@@H](C)O)C(C)C)C(C)C)[C@@H](C)O)C(N)=O,,,"zebrafish embryos 28 hpf, E3 medium",24 h,,chronic toxic concentration,5 µM
CC[C@H](C)[C@H](NC(=O)[C@H](CCCCN)NC(=O)CNC(=O)[C@H](CC(C)C)NC(=O)[C@H](Cc1ccccc1)NC(=O)[C@H](CCCCN)NC(=O)[C@H](CO)NC(=O)[C@H](Cc1ccccc1)NC(=O)[C@H](Cc1c[nH]c2ccccc12)NC(=O)[C@H](CCC(N)=O)NC(=O)[C@@H](NC(=O)[C@H](Cc1ccccc1)NC(=O)CCCCCNC(=O)CN1CCN(CC(=O)O)CCN(CC(=O)O)CCN(CC(=O)O)CC1)C(C)C)C(=O)N[C@@H](CCC(=O)O)C(=O)N1CCC[C@H]1C(=O)N[C@@H](CC(=O)O)C(=O)N[C@H](C(=O)N[C@@H](CO)C(=O)N[C@@H](CCC(N)=O)C(=O)N[C@H](C(=O)N[C@@H](CCC(N)=O)C(=O)N[C@@H](CC(=O)O)C(=O)N1CCC[C@H]1C(=O)N[C@@H](CC(N)=O)C(=O)N[C@@H](CC(=O)O)C(=O)N[C@@H](CCC(N)=O)C(=O)N[C@@H](Cc1ccc(O)cc1)C(=O)N[C@@H](CCC(=O)O)C(=O)N1CCC[C@H]1C(=O)N[C@@H](Cc1ccccc1)C(=O)O)C(C)C)C(C)C [copper-64 labelled],,dynamic PET,"mouse both sexes, CT26 tumour, untreated, tumour","intravenous, 100 µCi/mouse, 30 s",,SUVmean,0.29 SUV
CS(C)(=O)=Nc1ccc(-c2ccc(-c3nc4cc(O[C@@H]5CO[C@H]6[C@@H]5OC[C@H]6O)[nH]c4cc3F)cc2)cc1,"MAP3K9 (Homo sapiens, UniProt P80192)","enzyme activity, inhibitor",,10 µM,,inhibition,34%
O=C1NC2(CC2)COc2ncc(F)cc2[C@H]2COCCN2c2ccn3ncc1c3n2,,,"Sprague-Dawley rat, male","oral, 10 mg/kg/day, end of treatment, 4-week repeated-dose toxicity",,body weight,451 ± 30.5 g
CCCCCCCCCCCC(=O)N[C@@H](CCCNC(=N)N)C(=O)N[C@@H](Cc1c[nH]c2ccccc12)C(=O)N[C@@H](CCCCN)C(=O)N[C@H](C(=O)N[C@@H](Cc1ccccc1)C(=O)N[C@@H](CCCCN)C(=O)N[C@@H](CCCCN)C(=O)N[C@H](C(=O)N[C@@H](CCC(=O)O)C(=O)N[C@@H](CCCCN)C(=O)N[C@H](C(=O)NCC(=O)N[C@@H](CCC(N)=O)C(=O)N[C@@H](CC(N)=O)C(=O)N[C@H](C(=O)N[C@@H](CCCNC(=N)N)C(=O)N[C@@H](CC(=O)O)C(=O)NCC(=O)N[C@H](C(=O)N[C@H](C(=O)N[C@@H](CCCCN)C(=O)N[C@@H](C)C(=O)NCC(=O)N1CCC[C@H]1C(=O)N[C@@H](C)C(=O)N[C@H](C(=O)N[C@@H](C)C(=O)N[C@H](C(=O)N[C@H](C(=O)NCC(=O)N[C@@H](CCC(N)=O)C(=O)N[C@@H](C)C(=O)N[C@@H](C)C(=O)N[C@H](C(=O)N[C@H](C(N)=O)[C@@H](C)CC)[C@@H](C)O)C(C)C)C(C)C)C(C)C)C(C)C)[C@@H](C)CC)[C@@H](C)CC)C(C)C)[C@@H](C)CC)[C@@H](C)CC,,CD spectroscopy,50% TFE in water,room temperature,,helical content,42.7%
COC(=O)[C@H]1[C@@H](c2ccc(Cl)c(Cl)c2)C[C@@H]2CC[C@H]1N2CCOc1ccc2cc3ccccc3cc2c1,,fluorometric titration,,"1 µM, 10% DMSO",,pKa,6.6
CC(=O)c1c(C)c2cnc(Nc3ccc(N4CCNCC4)cn3)nc2n(C2CCCC2)c1=O,,,"C57BL/6 mice, blood","25 mg/kg, P25, dosed P10 to P24",,creatinine,0.39 ± 0.05 mg/dL
COc1ccccc1-c1n[nH]c2nc(NC3CCN(C(=O)Cc4ccc(F)cc4F)CC3)ncc12,,"bead binding, competition bead pull-down, refers to: LINJ.28.2370",Leishmania donovani extract,10 µM,baseline: vehicle,relative abundance,3.21
[18F]c1cc(-c2ccc3c(n2)[nH]c2ccncc23)ccn1,,PET imaging,"Sprague-Dawley rat, both sexes",intravenous bolus,,brain initial uptake,2.5 to 2.8 SUV

# Excerpt of the above:
SMILES,target or system,assay,system,conditions,scale,quantity,value
O=C1NC2(CC2)COc2ncc(F)cc2[C@H]2COCCN2c2ccn3ncc1c3n2,,,"Sprague-Dawley rat, male","oral, 10 mg/kg/day, end of treatment, 4-week repeated-dose toxicity",,body weight,451 ± 30.5 g
CCCCCCCCCCCC(=O)N[C@@H](CCCNC(=N)N)C(=O)N[C@@H](Cc1c[nH]c2ccccc12)C(=O)N[C@@H](CCCCN)C(=O)N[C@H](C(=O)N[C@@H](Cc1ccccc1)C(=O)N[C@@H](CCCCN)C(=O)N[C@@H](CCCCN)C(=O)N[C@H](C(=O)N[C@@H](CCC(=O)O)C(=O)N[C@@H](CCCCN)C(=O)N[C@H](C(=O)NCC(=O)N[C@@H](CCC(N)=O)C(=O)N[C@@H](CC(N)=O)C(=O)N[C@H](C(=O)N[C@@H](CCCNC(=N)N)C(=O)N[C@@H](CC(=O)O)C(=O)NCC(=O)N[C@H](C(=O)N[C@H](C(=O)N[C@@H](CCCCN)C(=O)N[C@@H](C)C(=O)NCC(=O)N1CCC[C@H]1C(=O)N[C@@H](C)C(=O)N[C@H](C(=O)N[C@@H](C)C(=O)N[C@H](C(=O)N[C@H](C(=O)NCC(=O)N[C@@H](CCC(N)=O)C(=O)N[C@@H](C)C(=O)N[C@@H](C)C(=O)N[C@H](C(=O)N[C@H](C(N)=O)[C@@H](C)CC)[C@@H](C)O)C(C)C)C(C)C)C(C)C)C(C)C)[C@@H](C)CC)[C@@H](C)CC)C(C)C)[C@@H](C)CC)[C@@H](C)CC,,CD spectroscopy,50% TFE in water,room temperature,,helical content,42.7%
